Experimental data from different studies.
Each numbered part is a random draw from the data of one study; scales do not carry over between parts.

Study 1
Target: Histone acetyltransferase KAT6A, both winged helices, GST fusion (KAT6A, Homo sapiens, UniProt Q92794, residues 1-181)
Technique: protein binding microarray
Molecule type: double-stranded DNA, one strand shown
Sample: in vitro
Concentration: not given
Notes: 8-mer, flanks averaged, mean of 2 arrays, mostly near background
Baseline: not given
Direction: higher = stronger binding
Construct (chain): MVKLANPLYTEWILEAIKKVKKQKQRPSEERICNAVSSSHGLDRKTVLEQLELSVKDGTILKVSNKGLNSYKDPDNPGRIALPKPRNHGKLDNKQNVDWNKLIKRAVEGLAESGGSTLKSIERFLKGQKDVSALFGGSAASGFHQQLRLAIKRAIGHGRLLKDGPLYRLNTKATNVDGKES
For `AACTGAGT`, the E-score was -0.102.
With `GGTTCCAA` the E-score was 0.0888.
For `CACGAAAG`, the E-score was -0.0339.
With `GAAATCAA` the E-score was 0.071.
The E-score of `AATCTAGT` is reported as -0.125.
`GTTAGCGA` gave an E-score of 0.118.
The E-score of `GCGGTTAA` is reported as 0.21.
`GATAGCGA` gave an E-score of 0.0186.
The E-score of `ACAAAGAG` is reported as -0.208.
The E-score of `AATGCACC` is reported as -0.173.
`GGTTACAC` gave an E-score of -0.0165.
`ACGTACCT` has an E-score of -0.229.
For `AGTGAGTA`, the E-score was -0.0614.
With `ACGGCTGC` the E-score was 0.183.
`CAGAAGCC` has an E-score of -0.0167.
`CTGCACCA` has an E-score of -0.272.

Study 2
Target: Sal-like protein 4, full length isoform A (SALL4, Homo sapiens, UniProt Q9UJQ4, residues 1-1053)
Sequence of UniProt Q9UJQ4 (whole entry, looked up): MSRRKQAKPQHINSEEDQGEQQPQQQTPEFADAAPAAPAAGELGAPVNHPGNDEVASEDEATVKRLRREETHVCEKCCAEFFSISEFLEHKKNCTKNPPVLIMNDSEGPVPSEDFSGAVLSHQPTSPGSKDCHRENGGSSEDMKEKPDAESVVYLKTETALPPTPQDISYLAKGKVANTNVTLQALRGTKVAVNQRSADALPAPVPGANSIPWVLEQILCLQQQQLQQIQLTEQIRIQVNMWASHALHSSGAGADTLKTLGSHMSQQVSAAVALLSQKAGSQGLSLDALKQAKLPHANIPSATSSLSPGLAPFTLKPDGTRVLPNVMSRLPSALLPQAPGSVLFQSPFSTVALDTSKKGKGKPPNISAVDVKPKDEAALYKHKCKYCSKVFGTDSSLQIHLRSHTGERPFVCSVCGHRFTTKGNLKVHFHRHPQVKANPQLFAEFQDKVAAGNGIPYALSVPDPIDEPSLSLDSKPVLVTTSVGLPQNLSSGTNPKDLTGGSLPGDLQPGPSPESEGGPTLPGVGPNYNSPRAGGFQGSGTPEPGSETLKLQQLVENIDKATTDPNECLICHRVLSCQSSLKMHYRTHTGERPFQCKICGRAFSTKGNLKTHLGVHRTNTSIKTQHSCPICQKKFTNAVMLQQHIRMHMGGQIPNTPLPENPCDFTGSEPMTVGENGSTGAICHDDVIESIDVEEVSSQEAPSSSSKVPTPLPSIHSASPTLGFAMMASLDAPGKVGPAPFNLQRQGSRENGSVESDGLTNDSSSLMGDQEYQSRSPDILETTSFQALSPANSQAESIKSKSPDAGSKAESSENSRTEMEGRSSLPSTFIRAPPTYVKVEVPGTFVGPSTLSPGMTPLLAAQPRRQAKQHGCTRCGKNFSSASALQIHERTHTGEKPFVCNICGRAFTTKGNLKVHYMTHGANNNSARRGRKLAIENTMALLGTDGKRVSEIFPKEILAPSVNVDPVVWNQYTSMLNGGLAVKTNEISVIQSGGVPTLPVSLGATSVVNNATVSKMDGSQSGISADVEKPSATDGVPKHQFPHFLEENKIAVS
Technique: universal PBM
Molecule type: double-stranded DNA, one strand shown
Sample: in vitro
Concentration: 600 nM
Notes: 8-mer, flanks averaged, mean of replicates
Direction: higher = stronger binding
`ACGTGGAT` gave an E-score of 0.0536.
With `ACCCAATC` the E-score was -0.0402.
`ACAAATAC` has an E-score of 0.208.
`GCTTAACA` gave an E-score of 0.132.
`GTATTTCA` has an E-score of 0.276.
`CCGCGCCA` has an E-score of -0.259.
For `AGCCTGAC`, the E-score was -0.237.
For `AGGGCCTG`, the E-score was -0.337.
`ACCAGCAC` has an E-score of -0.0884.
The E-score of `AAACTGGA` is reported as 0.0636.
For `AGACTGCG`, the E-score was -0.274.
The E-score of `CCTGGCCC` is reported as -0.387.
The E-score of `CGAGGAAA` is reported as -0.00509.
The E-score of `GTTCAGAA` is reported as 0.0829.
`AATTGCTC` gave an E-score of -0.0381.
With `CAGCCCAC` the E-score was -0.267.
The E-score of `CCCGCCGC` is reported as -0.375.
`AGGTCGAA` has an E-score of -0.0677.
The E-score of `ACACCTTC` is reported as -0.0293.
With `CGAACGCC` the E-score was -0.349.
`AACCGACC` gave an E-score of -0.197.
With `CTACCATC` the E-score was -0.207.
With `GATGTGGC` the E-score was -0.137.
For `GAGAGTGC`, the E-score was -0.0176.
`ACGTGTTC` has an E-score of -0.0364.

Study 3
Organism: Saccharomyces cerevisiae
Read-out: pheromone growth arrest
Technique: yeast competitive growth sequencing
Molecule type: peptide
Strain: no Cln2 overexpression
Notes: peptide tiling library
Direction: direction not given
For `DSGFCLDSPGPLDSKE`, the enrichment score was 0.931.
`RRRIKLPESDSSED` gave an enrichment score of 1.21.
With `TQERKQIHCLSEDELS` the enrichment score was -0.314.
`ELGMEHCEKFEISETS` gave an enrichment score of 0.243.
With `VEEEFFALRKRTPSAG` the enrichment score was 0.314.
With `EAAPPTQEAQGETEPT` the enrichment score was 0.168.
With `AIRKMREDRWAVIAKM` the enrichment score was 0.204.
For `NLEPNAEFDKRTEFIT`, the enrichment score was 0.222.
With `NARRSLNFGGSTGT` the enrichment score was 0.0523.
The enrichment score of `IPMIAKNLMCELDE` is reported as -0.128.
`TLPYDLACTGGDFVLF` has an enrichment score of 0.843.
The enrichment score of `IFNKPECGRVQRAIFQ` is reported as -0.0948.
`DSDSDSEGGAAGGEAD` gave an enrichment score of 1.2.
For `RNRGPKLNAMLRLGVL`, the enrichment score was 0.169.
The enrichment score of `SGYLTDENEVGFRG` is reported as -0.261.
`VRDLSYRLVFLACCVA` has an enrichment score of -0.391.
With `ALTMEALEDPSPELME` the enrichment score was 0.186.
With `FREFEVEKQTAEETGL` the enrichment score was 0.398.
With `NRLLKLFTRCLTPLVP` the enrichment score was -0.926.

Study 4
Target: Ras GTPase-activating protein-binding protein 1, RRM domain (G3BP1, Homo sapiens, UniProt Q13283)
Sequence of UniProt Q13283 (whole entry, looked up): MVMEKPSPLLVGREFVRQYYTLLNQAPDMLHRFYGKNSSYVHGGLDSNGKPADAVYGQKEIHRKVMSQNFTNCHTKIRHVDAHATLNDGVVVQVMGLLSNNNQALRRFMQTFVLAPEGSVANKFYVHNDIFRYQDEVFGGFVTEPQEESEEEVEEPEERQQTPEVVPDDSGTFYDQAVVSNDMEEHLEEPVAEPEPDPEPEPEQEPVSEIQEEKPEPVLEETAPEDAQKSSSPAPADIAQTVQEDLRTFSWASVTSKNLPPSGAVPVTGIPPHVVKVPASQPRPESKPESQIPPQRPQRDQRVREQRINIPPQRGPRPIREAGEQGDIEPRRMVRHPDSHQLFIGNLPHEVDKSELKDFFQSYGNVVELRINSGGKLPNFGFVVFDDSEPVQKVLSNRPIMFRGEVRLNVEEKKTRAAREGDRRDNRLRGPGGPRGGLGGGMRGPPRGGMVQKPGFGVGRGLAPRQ
Technique: RNA Bind-n-Seq
Molecule type: RNA
Sample: in vitro
Concentration: 1 µM
Notes: whole 134-nt RNA, ends assumed
Together with: 150 mM KCl
Baseline: input library
Direction: higher = stronger binding
The log2 enrichment of `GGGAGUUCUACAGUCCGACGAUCGUCCUGUGCUACACAUCGUAUGUACCGAAUCGGGGCCCCCGGGGCCCCCGGCCCCCGGGAAAGUAUUAUGUUACGCCGUUCGGAUCUGCAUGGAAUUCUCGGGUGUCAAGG` is reported as -0.522.
`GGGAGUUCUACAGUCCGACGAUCGCAGGAAGUAAAAACAAAUAAAAAUGCUUCGGAUAGUGGCAGGGGUGGGGGUUGCUAAGGAAAGGGUGGGAUGGGAGUGGGUAAAGAGUUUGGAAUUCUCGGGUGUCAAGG` has a log2 enrichment of 0.867.
With `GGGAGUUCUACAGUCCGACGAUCUCCUGUGCUACACAUCGUAUGUACCGAAUCGGGGAAAAAAAGGGGUUUGGGGUUUGGGGAAAGUAUUAUGUUACGCCGUUCGGAUCUGCAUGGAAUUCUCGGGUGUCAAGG` the log2 enrichment was 1.3.
`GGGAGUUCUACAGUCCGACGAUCGUCCUGUGCUACACAUCGUAUGUACCGAAUCGGGGUUUUGGGGUUUUGGGUUUUGGGGAAAGUAUUAUGUUACGCCGUUCGGAUCUGCACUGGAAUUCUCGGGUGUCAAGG` gave a log2 enrichment of 0.349.
For `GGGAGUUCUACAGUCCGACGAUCUAACUUUAGAGGAGGAUCUGAUGGAUAUGGCAGUGGACGUGGAUUUGGGGAUGGCUAUAACGGGUAUGGAGGAGGACCUGGAGGUGGCAAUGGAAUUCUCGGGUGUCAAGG`, the log2 enrichment was -0.531.
The log2 enrichment of `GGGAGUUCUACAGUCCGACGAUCCACAGACAACACGCACCCACACAGACACAGAGGGAAGAGGUUGGGAUGGGGACAGGGUGCACAGCAGGGCGGGGUAGGACCCCAGCCCCUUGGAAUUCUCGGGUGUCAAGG` is reported as -0.0149.
`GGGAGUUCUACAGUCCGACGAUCUAACUUUAAAGGAGGAUCUGAUGGAUAUGGCAGUGGACGUGGAUUUGGGGAUGGCUAUAAUGGGUAUGGAGGAGGACCUGGAGGUGGCAAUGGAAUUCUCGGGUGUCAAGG` gave a log2 enrichment of -0.731.
For `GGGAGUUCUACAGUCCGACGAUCGUCCUGUGCUACACAUCGUAUGUACCGAAUCAAACCCCCCCAAACCCAAAUUUUUAAAAAAGUAUUAUGUUACGCCGUUCGGAUCUGCACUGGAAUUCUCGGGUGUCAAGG`, the log2 enrichment was -0.128.
For `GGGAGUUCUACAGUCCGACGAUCCCUGUGCUACACAUCGUAUGUACCGAAUCGGGGUGGGGUUUUUUUGGGGAAAAAAAGGGGAAAGUAUUAUGUUACGCCGUUCGGAUCUGCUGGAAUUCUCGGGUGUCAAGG`, the log2 enrichment was 0.384.

Study 5
Target: Prothrombin, mature alpha-thrombin (F2, Homo sapiens, UniProt P00734)
Technique: aptamer microarray, sandwich
Molecule type: DNA with 2'F-ANA
Sample: in vitro
Concentration: 200 nM
Notes: whole 15-mer aptamer, many near background
Together with: Cy3 exosite-II aptamer, 400 nM
Direction: higher = stronger binding
Sequence: GGTTGGTGTGGTTGG
`2'F-ANA at 2 3 4 6 7 11 12 14` — result for “mean fluorescence intensity”: 304 a.u.
`2'F-ANA at 1 2 5 6 7 11 12 13 15` — result for “mean fluorescence intensity”: 66.6 a.u.
Under “mean fluorescence intensity”, `2'F-ANA at 1 3 4 5 6 7 9 11 12 13` is recorded as 64.8 a.u.
`2'F-ANA at 1 2 7 13 15` — result for “mean fluorescence intensity”: 141 a.u.
For `2'F-ANA at 1 4 7 8 9 10 11 12 14 15`, “mean fluorescence intensity” read 48.9 a.u.
`2'F-ANA at 1 3 6 7 8 9 10 11 13` — result for “mean fluorescence intensity”: 78.4 a.u.
Under “mean fluorescence intensity”, `2'F-ANA at 1 2 3 7 10 11` is recorded as 64.5 a.u.
Under “mean fluorescence intensity”, `2'F-ANA at 1 4 5 7 11 14` is recorded as 147 a.u.
`2'F-ANA at 1 7 9 14` — result for “mean fluorescence intensity”: 69.1 a.u.
Under “mean fluorescence intensity”, `2'F-ANA at 3 4 5 8 14` is recorded as 50.7 a.u.
For `2'F-ANA at 3 6 10 11 12 13 14 15`, “mean fluorescence intensity” read 360 a.u.
For `2'F-ANA at 2 9 13 15`, “mean fluorescence intensity” read 347 a.u.
For `2'F-ANA at 5 6 7 9 11 15`, “mean fluorescence intensity” read 57.6 a.u.
`2'F-ANA at 1 3 4 5 6 7 8 10 11 12 13`: “mean fluorescence intensity” 60.3 a.u.
Under “mean fluorescence intensity”, `2'F-ANA at 7 8 9 11 14` is recorded as 226 a.u.
`2'F-ANA at 1 2 3 4 6 10 12 15` — result for “mean fluorescence intensity”: 157 a.u.
`2'F-ANA at 2 3 4 6 7 9 10 11 12 13 14 15` — result for “mean fluorescence intensity”: 143 a.u.

Single results of other studies
`PhoQ, residues 284 288 289 292 302 303 AGGCYF` gave a fold induction of 1.84 (PhoP, residues 12 14 15 18 19 SYFRT (Escherichia coli, UniProt P23836); Sort-seq, item: YFP reporter; E. coli; PhoQ-PhoP variant library, together with: 10 µM Mg2+; baseline: high Mg2+ state, higher = stronger signaling).

Some of these lines once more (study 3):
With `VEEEFFALRKRTPSAG` the enrichment score was 0.314.
With `EAAPPTQEAQGETEPT` the enrichment score was 0.168.
With `AIRKMREDRWAVIAKM` the enrichment score was 0.204.
For `NLEPNAEFDKRTEFIT`, the enrichment score was 0.222.
With `NARRSLNFGGSTGT` the enrichment score was 0.0523.
The enrichment score of `IPMIAKNLMCELDE` is reported as -0.128.
`TLPYDLACTGGDFVLF` has an enrichment score of 0.843.
The enrichment score of `IFNKPECGRVQRAIFQ` is reported as -0.0948.
`DSDSDSEGGAAGGEAD` gave an enrichment score of 1.2.
For `RNRGPKLNAMLRLGVL`, the enrichment score was 0.169.
The enrichment score of `SGYLTDENEVGFRG` is reported as -0.261.
`VRDLSYRLVFLACCVA` has an enrichment score of -0.391.
With `ALTMEALEDPSPELME` the enrichment score was 0.186.
